Assay results collected from several papers.
Lines come from different studies, so protocols differ. Numbers after ± are the reported error.

Substance	cell line	test	setting	scale	IC50
CN1CCN(CCCOc2ccc(/C=N/NC(=O)Nc3cc4c(Nc5ccc(F)c(Cl)c5)ncnc4cc3O[C@H]3CCOC3)cc2)CC1	NCI-H1975	cell growth or viability, MTT	72 h		6.23 µM
O=C(Cc1ccc(Cl)cc1)Nc1nc2ccccc2n1Cc1ccc(Br)cc1	MDA-MB-231-HRE-Luc cells	HIF reporter gene, inhibitor	24 h, hypoxia 1% O2		3.58 ± 1.38 µM
COc1ccc(OC)c(/C=C2\CC/C(=C\c3ccc(O)c(OC)c3)C2=O)c1	BGC-823	cell growth or viability, MTT	72 h		4.7 µM
CCN(CC)Cc1ccc(/C=N/NC(=O)Nc2cc3c(Nc4ccc(F)c(Cl)c4)ncnc3cc2O[C@H]2CCOC2)cc1	NCI-H1975	cell growth or viability, MTT	72 h		62.6 µM
COc1cc(O)c2c(=O)c(O)c(-c3ccc(O)c(O)c3)oc2c1	BV-2	TNF-alpha release, ELISA	24 h, together with: LPS 10 µg/mL + MLA 10 µM		105 µM
CC/C(=C(\c1ccccc1)c1ccc(OCCN(C)CCOCCOCCOc2ccc3[nH]cc(CCNC(C)=O)c3c2)cc1)c1ccccc1	HT-1080	cell survival, MTT	day 9, dosed days 2, 4, 7		5.9 µM
COc1ccc(/C=C/C(=O)/C(=C/C2=CC=C[CH]2[Fe][CH]2C=CC=C2)C(=O)/C=C/c2ccc(O)cc2)cc1OC (centres unmarked)	RKO	cell growth or viability, MTT			7.29 µM
Fc1cc(-c2nc3ccc(Cl)cc3[nH]2)ccc1OCc1cn(CCN2CCOCC2)nn1	DND41	cell growth or viability, MTS	72 h		> 100 µM
CN(Cc1cnc2nc(N)nc(N)c2n1)c1ccc(C(=O)N[C@@H](CCC(=O)O)C(=O)O)cc1	rat Synovial cell	cell growth or viability, CCK-8	48 h		2.38 µM
COc1cc(OC)c(Cl)c(NC(=O)N(C)c2cc(Nc3ccc(N4CCN(CC(=O)N[C@H](C(=O)N5C[C@H](O)C[C@H]5C(=O)N[C@@H](C)c5ccc(-c6scnc6C)cc5)C(C)(C)C)CC4)cc3)ncn2)c1Cl	RBE (no FGFR activation)	cell proliferation, CellTiter-Glo	3 d		> 10 µM
COc1c(-c2coc3cc4c(cc3c2=O)CC(OC(C)=O)C(C)(C)O4)ccc2c1C=CC(C)(C)O2 (centres unmarked)	human primary myometrial cells	calcium mobilisation, inhibitor			14 µM
COc1cc(O)c2c(c1)O[C@H](c1ccc(O)cc1)CC2=O	BV-2	NO release, inhibitor, Griess	LPS-stimulated		85.8 µM
CN1CCC2(CC1)C/C(=N\N=C\c1ccc(O)cc1)c1ccccc1O2	MCF7, HCT-116, PC-3, A549	cell growth, MTT	range over cell lines		2.02 to 23.2 µM
C[C@]12C=CC(=O)C=C1CC[C@@H]1[C@@H]2[C@@H](O)C[C@@]2(C)[C@H]1CC[C@]2(O)C(=O)CO	C2C12 myotubes	NF-κB reporter gene, inhibitor	24 h pretreatment, together with: TNF-α 10 ng/mL, 24 h		1.78 µM
CCCCc1oc2ccccc2c1C(=O)c1cc(I)c(OCCNCC)c(I)c1	rabbit alveolar macrophages	surfactant protein A degradation	1 h		10.4 ± 1.7 µM
O=C(N/N=C/c1ccc(N2CCCC2)nc1)Nc1cc2c(Nc3ccc(F)c(Cl)c3)ncnc2cc1O[C@H]1CCOC1	NCI-H1975	cell growth or viability, MTT	72 h		51.6 µM
Clc1ccc2nc(-c3ccc(OCCN4CCOCC4)cc3)[nH]c2c1	DND41	cell growth or viability, MTS	72 h		39.3 µM
C[C@]1([N+](=O)[O-])C(=O)c2cccc(F)c2O[C@@H]1CC(=O)NC12CC3CC(CC(C3)C1)C2	PC-3M	cell growth or viability, SRB	96 h		9.16 µM
O=C1C(SCCO)=C(SCCO)C(=O)c2ccccc21	hiPSC hepatic differentiation phase III	cell viability, CCK-8	48 h		83 ± 13.5 µM
CCN(CC)CCOc1ccc(-c2nc3ccc(F)cc3[nH]2)cc1	DND41	cell growth or viability, MTS	72 h		43.4 µM

Substance	cell line	test	setting	scale	IC50
CCNC(=O)Nc1ccc(S(=O)(=O)Oc2cnccc2I)cc1	HT-1080	cell growth or viability, SRB	48 h		3.2 µM
COc1ccc(C[C@H]2COC(=O)[C@@H]2Cc2ccc(OCc3cn(CC(=O)NO)nn3)c(OC)c2)cc1OC	MV4-11	cell growth or viability, CCK-8	48 h		> 5 µM
COc1cc(/C=C/C(=O)N2CCC=CC2=O)cc(OC)c1OC	pStat3-high breast cancer lines	anchorage-independent growth	16 h		2.8 to 12.9 µM
COc1cc(/C=C/C(=O)/C(=C\C2=CC=C[CH]2[Fe][CH]2C=CC=C2)C(=O)/C=C/c2ccc(OC)c(OC)c2)ccc1O (centres unmarked)	RKO	cell growth or viability, MTT			5.66 µM
O=C(N/N=C/c1ccc(OCCCN2CCCCC2)cc1)Nc1cc2c(Nc3ccc(F)c(Cl)c3)ncnc2cc1O[C@H]1CCOC1	NCI-H1975	cell growth or viability, MTT	72 h		2.2 µM
CCN(CC)CCOc1ccc(-c2nc3ccc(Cl)cc3[nH]2)cc1	DND41	cell growth or viability, MTS	72 h		42.9 µM
O=C(C[C@@H]1C/C=C/CCC(=O)O[C@H](c2ccccc2)CNC1=O)NCc1ccc(Cl)cc1	C3H10T1/2	ShhN-induced alkaline phosphatase, inhibitor	120 h, together with: ShhN at EC50		6.4 µM
CC[C@]1(O)C[C@H]2CN(CCc3c([nH]c4ccccc34)[C@@](C(=O)OC)(c3cc4c(cc3OC)N(C=O)[C@H]3[C@@](O)(C(=O)OC)[C@H](OC(C)=O)[C@]5(CC)C=CCN6CC[C@]43[C@@H]65)C2)C1	HCT-15	cell growth or viability, XTT	72 h		0.921 µg/mL
COc1cc(/C=C/C(=O)CC(=O)/C=C/c2ccc(OC(=O)C3=CC=C[CH]3[Fe][CH]3C=CC=C3)cc2)ccc1O (centres unmarked)	RKO	cell growth or viability, MTT			11.1 µM
COc1cc(C(=O)O)ccc1O	BV-2	NO release, inhibitor, Griess	LPS-stimulated		> 20 µM
COc1cc(/C=C/C(=O)CC(=O)/C=C/c2ccc(O)c(OC)c2)ccc1O	BGC-823	cell growth or viability, MTT	72 h		17.5 µM
CC(C)c1ccc(/C=C/C(=O)C(=CC2=CC=C[CH]2[Fe][CH]2C=CC=C2)C(=O)/C=C/c2ccc(C(C)C)cc2)cc1 (centres unmarked)	RKO	cell growth or viability, MTT			108 µM
[Ala11,D-Leu15]orexin B	rat cortical primary neurons	cAMP formation, antagonist	15 min, together with: forskolin 1 µM		0.042 ± 0.002 µM
O=C(Cc1ccc(Br)cc1)Nc1nc2ccccc2n1Cc1ccc(Br)cc1	MDA-MB-231-HRE-Luc cells	HIF reporter gene, inhibitor	24 h, hypoxia 1% O2		1.78 ± 0.75 µM
COC1=CC(=O)c2c(ccc3cc(OC)c(OC)c(OC)c23)C1=O	BV-2	NO release, inhibitor, Griess	LPS-stimulated		9.95 µM
O=C(N/N=C/c1ccc(OCCCN2CCOCC2)cc1)Nc1cc2c(Nc3ccc(F)c(Cl)c3)ncnc2cc1O[C@H]1CCOC1	NCI-H1975	cell growth or viability, MTT	72 h		24.8 µM
c1ccc(P(=NCc2ccccn2)(c2ccccc2)c2ccccc2)cc1	A2780cisR (cisplatin-resistant)	cell growth, MTT	74 h, 1% DMSO		> 50 µM
CCCNC(=O)Nc1ccc(S(=O)(=O)Oc2cccnc2Br)cc1	HT-1080	cell growth or viability, SRB	48 h		6 µM
CCOc1cc(C(C)(C)C)ccc1C1=N[C@@](C)(c2ccc(Cl)cc2)[C@@](C)(c2ccc(Cl)cc2)N1C(=O)N1CCN(CCCS(C)(=O)=O)CC1	TP53 homozygous mutant glioma lines	cell proliferation, WST-1	72 h	reference: TP53 wild-type lines	no effect
CC(C)c1ncccc1OS(=O)(=O)c1ccc(NC(=O)NCCCl)cc1	HT-1080	cell growth or viability, SRB	48 h		3.8 µM

Substance	cell line	test	setting	scale	IC50
CN(C)Cc1ccc(/C=N/NC(=O)Nc2cc3c(Nc4ccc(F)c(Cl)c4)ncnc3cc2O[C@H]2CCOC2)cc1	NCI-H1975	cell growth or viability, MTT	72 h		40.3 µM
CC(C)(C)c1nc(-c2cccc(NS(=O)(=O)c3c(F)cccc3F)c2F)c(-c2ccnc(N)n2)s1	WM 266-4	cell growth or viability, MTT	48 h		16.5 µM
CCN(CC)CCOc1ccc(-c2nc3ccc(F)cc3[nH]2)cc1F	DND41	cell growth or viability, MTS	72 h		30.3 µM
O=C1C(Cl)=C(NCCN2CCOCC2)C(=O)c2ccccc21	HEC-1-A	cell viability, MTT	without thiol pretreatment		10.2 µM
COc1ccccc1C=C1SC(=O)N(CC(=O)Nc2ccc(C(=O)Nc3ccc(Cl)cc3)cc2)C1=O	HT-29, A549, HCT-116	cell growth, MTT	range over cell lines		13.6 to 17.8 µM
COc1ccc(C[C@H]2COC(=O)[C@@H]2Cc2ccc(OCC(=O)Nc3ccc(C(=O)Nc4ccccc4N)cc3)c(OC)c2)cc1OC	Kasumi 1	cell growth or viability, CCK-8	48 h		0.86 µM
CCOC(=O)OCOc1c(-c2ccc(-c3ccc(OC(F)(F)F)cc3)cc2)c(C)nc2cc(OC)c(F)cc12	HeLa and HCT-116 average	cell viability, MTT	48 h		21 µM
CC(C)c1cc(CNc2nc(Nc3cc(C4CC4)[nH]n3)cc(N3CCN(C)CC3)n2)on1	primary CLL cells	protein level decrease, flow cytometry	24 h, OP9 stromal co-culture		2.96 µM
O=c1[nH]cc(F)c(=O)[nH]1	HT-1080	cell growth or viability, MTT	72 h		14 µM
C[C@]1([N+](=O)[O-])C(=O)c2cc(C(F)(F)F)ccc2O[C@@H]1CC(=O)NC12CC3CC(CC(C3)C1)C2	PC-3M	cell growth or viability, SRB	96 h		12.9 µM
β-secretase inhibitor IV	H4 overexpressing human APP Swedish	Abeta42 formation	24 h		0.216 µM
Pinoresinol	fibroblast	MTT	24 h		650 µM
Cc1c(C(=O)Nc2ccc(N3C[C@@H](C)O[C@@H](C)C3)nc2)cccc1-c1ccc(OC(F)(F)F)cc1	mouse Medulloblastoma cell	cell growth or viability, thymidine uptake	48 h		0.006 µM
Cc1ccc(C(CS(=O)(=O)c2ccccc2)=NNC2=NC(=O)C(=NNc3ccccc3)S2)cc1	WM 266-4	cell growth or viability, MTT	48 h		6.18 µM
COc1ccc2c(c1)C(=O)[C@](C)([N+](=O)[O-])[C@@H](CC(=O)NC13CC4CC(CC(C4)C1)C3)O2	PC-3M	cell growth or viability, SRB	96 h		13.1 µM
CN(C)c1ccc(/C=N/NC(=O)Nc2cc3c(Nc4ccc(F)c(Cl)c4)ncnc3cc2O[C@H]2CCOC2)cc1	NCI-H1975	cell growth or viability, MTT	72 h		12.3 µM
COc1ccc(C[C@H]2COC(=O)[C@@H]2Cc2ccc(OCC(=O)N3CCC(C(=O)NO)CC3)c(OC)c2)cc1OC	Kasumi 1	cell growth or viability, CCK-8	48 h		> 5 µM
Cn1cc(CN2CCN(c3ncc(C(=O)NO)cn3)CC2)c2ccccc21	HEL		24 h		0.162 ± 0.00212 µM
COc1cccc2c1C(=O)c1c(O)c3c(c(O)c1C2=O)C[C@@](O)(C(=O)CO)C[C@@H]3O[C@H]1C[C@H](N)[C@H](O)[C@H](C)O1	HCT-15	cell growth or viability, XTT	72 h		0.252 µg/mL

Repeated from above:
Substance	cell line	test	setting	scale	IC50
CN1CCN(CCCOc2ccc(/C=N/NC(=O)Nc3cc4c(Nc5ccc(F)c(Cl)c5)ncnc4cc3O[C@H]3CCOC3)cc2)CC1	NCI-H1975	cell growth or viability, MTT	72 h		6.23 µM
O=C(Cc1ccc(Cl)cc1)Nc1nc2ccccc2n1Cc1ccc(Br)cc1	MDA-MB-231-HRE-Luc cells	HIF reporter gene, inhibitor	24 h, hypoxia 1% O2		3.58 ± 1.38 µM
COc1ccc(OC)c(/C=C2\CC/C(=C\c3ccc(O)c(OC)c3)C2=O)c1	BGC-823	cell growth or viability, MTT	72 h		4.7 µM
CCN(CC)Cc1ccc(/C=N/NC(=O)Nc2cc3c(Nc4ccc(F)c(Cl)c4)ncnc3cc2O[C@H]2CCOC2)cc1	NCI-H1975	cell growth or viability, MTT	72 h		62.6 µM
COc1cc(O)c2c(=O)c(O)c(-c3ccc(O)c(O)c3)oc2c1	BV-2	TNF-alpha release, ELISA	24 h, together with: LPS 10 µg/mL + MLA 10 µM		105 µM
CC/C(=C(\c1ccccc1)c1ccc(OCCN(C)CCOCCOCCOc2ccc3[nH]cc(CCNC(C)=O)c3c2)cc1)c1ccccc1	HT-1080	cell survival, MTT	day 9, dosed days 2, 4, 7		5.9 µM
COc1ccc(/C=C/C(=O)/C(=C/C2=CC=C[CH]2[Fe][CH]2C=CC=C2)C(=O)/C=C/c2ccc(O)cc2)cc1OC (centres unmarked)	RKO	cell growth or viability, MTT			7.29 µM
Fc1cc(-c2nc3ccc(Cl)cc3[nH]2)ccc1OCc1cn(CCN2CCOCC2)nn1	DND41	cell growth or viability, MTS	72 h		> 100 µM
